Experimental data collected from several papers.
“And” joins repeats or separate records; there may be more than shown. Numbers after ± are the reported error.

Sequences of proteins named here, by UniProt entry; tags and fusion partners are left off. Residues count along the entry.
UniProt P45983, 1-384 isoform 3 C116S: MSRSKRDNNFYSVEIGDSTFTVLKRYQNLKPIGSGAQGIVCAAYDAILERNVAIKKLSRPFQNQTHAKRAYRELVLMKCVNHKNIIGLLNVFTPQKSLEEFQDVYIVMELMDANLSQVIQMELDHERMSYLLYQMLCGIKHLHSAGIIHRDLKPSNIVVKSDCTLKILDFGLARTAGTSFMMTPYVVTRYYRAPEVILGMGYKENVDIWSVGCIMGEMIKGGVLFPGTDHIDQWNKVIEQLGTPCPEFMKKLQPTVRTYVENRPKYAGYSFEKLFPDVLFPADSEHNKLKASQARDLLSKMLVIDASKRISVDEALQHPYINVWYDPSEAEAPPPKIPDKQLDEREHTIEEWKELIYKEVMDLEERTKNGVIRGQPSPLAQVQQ
UniProt P46934, whole entry, looked up: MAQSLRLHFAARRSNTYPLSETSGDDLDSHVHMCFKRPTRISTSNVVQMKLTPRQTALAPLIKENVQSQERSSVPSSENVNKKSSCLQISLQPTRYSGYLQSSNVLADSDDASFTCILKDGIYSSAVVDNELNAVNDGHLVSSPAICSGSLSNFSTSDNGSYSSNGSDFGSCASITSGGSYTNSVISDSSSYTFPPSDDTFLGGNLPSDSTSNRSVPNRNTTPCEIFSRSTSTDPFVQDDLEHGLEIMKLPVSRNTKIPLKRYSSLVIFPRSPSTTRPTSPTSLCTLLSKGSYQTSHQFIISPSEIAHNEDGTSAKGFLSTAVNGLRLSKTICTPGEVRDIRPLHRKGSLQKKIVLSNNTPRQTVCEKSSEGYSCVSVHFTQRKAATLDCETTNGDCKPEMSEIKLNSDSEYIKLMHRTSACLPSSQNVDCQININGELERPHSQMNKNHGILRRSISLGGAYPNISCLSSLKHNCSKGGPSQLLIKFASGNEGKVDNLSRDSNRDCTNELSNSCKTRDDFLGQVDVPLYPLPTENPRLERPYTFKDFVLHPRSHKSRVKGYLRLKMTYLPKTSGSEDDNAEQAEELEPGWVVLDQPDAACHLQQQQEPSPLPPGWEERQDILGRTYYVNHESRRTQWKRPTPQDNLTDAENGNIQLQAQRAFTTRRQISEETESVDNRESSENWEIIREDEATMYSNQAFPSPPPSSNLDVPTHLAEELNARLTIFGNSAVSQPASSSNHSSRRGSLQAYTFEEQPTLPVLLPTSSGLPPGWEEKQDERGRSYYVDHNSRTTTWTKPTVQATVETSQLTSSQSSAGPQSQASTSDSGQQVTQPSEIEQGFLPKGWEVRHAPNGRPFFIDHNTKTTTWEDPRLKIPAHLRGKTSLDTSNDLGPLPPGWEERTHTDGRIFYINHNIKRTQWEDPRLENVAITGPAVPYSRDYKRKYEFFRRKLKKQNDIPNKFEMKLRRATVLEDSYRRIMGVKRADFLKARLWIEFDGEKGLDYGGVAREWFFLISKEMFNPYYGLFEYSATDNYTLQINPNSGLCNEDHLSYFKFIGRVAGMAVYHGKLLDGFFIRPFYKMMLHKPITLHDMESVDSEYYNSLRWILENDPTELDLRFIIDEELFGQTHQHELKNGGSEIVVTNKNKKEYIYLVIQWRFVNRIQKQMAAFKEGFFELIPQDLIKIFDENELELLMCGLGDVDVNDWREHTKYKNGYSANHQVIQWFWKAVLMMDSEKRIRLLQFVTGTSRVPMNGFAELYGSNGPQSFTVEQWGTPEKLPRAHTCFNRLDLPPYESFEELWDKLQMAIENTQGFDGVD
UniProt P11712, whole entry: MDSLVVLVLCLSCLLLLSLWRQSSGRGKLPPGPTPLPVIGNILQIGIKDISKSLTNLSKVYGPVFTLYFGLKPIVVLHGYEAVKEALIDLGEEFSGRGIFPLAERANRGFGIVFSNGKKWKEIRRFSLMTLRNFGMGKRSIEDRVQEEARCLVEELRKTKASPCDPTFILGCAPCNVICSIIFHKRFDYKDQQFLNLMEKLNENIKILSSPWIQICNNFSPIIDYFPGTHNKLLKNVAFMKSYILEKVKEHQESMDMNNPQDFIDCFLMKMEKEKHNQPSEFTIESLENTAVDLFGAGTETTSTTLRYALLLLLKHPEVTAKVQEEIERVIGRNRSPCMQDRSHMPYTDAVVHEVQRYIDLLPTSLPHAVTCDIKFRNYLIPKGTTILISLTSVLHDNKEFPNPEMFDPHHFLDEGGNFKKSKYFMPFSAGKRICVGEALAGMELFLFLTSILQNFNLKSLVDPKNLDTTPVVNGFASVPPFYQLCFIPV

SMILES = Cc1cccc(-c2nc(C)c(CSc3ccc(OCC(=O)O)c(C)c3)s2)c1; target or system = HEK293T; conditions = 18 h; endpoint = CC50; result = > 80 µM
SMILES = CCCSc1nc(N[C@@H]2C[C@H]2c2ccc(F)c(F)c2)c2nnn([C@@H]3C[C@H](O)[C@@H](O)[C@H]3O)c2n1; system = rat, male, plasma; conditions = oral, 20 mg/kg/day ticagrelor, week 52; endpoint = AUC; result = 20 µM·h
SMILES = Cc1cc(NC(=O)c2cccc(NC(=O)C3=CC(C)(C)CCC3=O)c2)ccc1Nc1nccc(-c2cccnc2)n1; target or system = MAPK8 (Homo sapiens, UniProt P45983, C116S); test = surface plasmon resonance; conditions = 100, 300, 1000 nM, 1:1 binding model; endpoint = koff; result = 0.102 s⁻¹
SMILES = Cc1n[nH]c(C)c1CCOC(=O)c1cccc2c1oc(=O)n2C; system = BALB/c mouse, plasma; conditions = oral, 10 mg/kg; endpoint = AUC(0-t); result = 7200 ng·h/mL
SMILES = Cc1cc(SCc2sc(-c3cc(C(F)(F)F)cc(C(F)(F)F)c3)nc2C)ccc1OCC(=O)O; target or system = HEK293T; conditions = 18 h; endpoint = CC50; result = > 50 µM
SMILES = CCOC(=O)/C=C/CNCCCCN1c2ccccc2CCc2ccc(Cl)cc21; target or system = E3 ubiquitin-protein ligase NEDD4 (Homo sapiens, UniProt P46934); test = inhibitor, Ub-TR-FRET; conditions = 33.33 µM, 1 h preincubation, HECT domain, with: ATP 2 mM; scale = higher = more ubiquitination; endpoint = ubiquitination TR-FRET signal AUC; result = 21200 a.u. and 13100 a.u. and 12200 a.u. and 18400 a.u. and 11600 a.u. and 10100 a.u.
SMILES = Cc1cc(SCc2sc(-c3cccc(OC(F)(F)F)c3)nc2C)ccc1OCC(=O)O; target or system = HEK293T; conditions = 18 h; endpoint = CC50; result = > 50 µM
SMILES = Cc1ccc(C(=O)Nc2ccccc2C(=O)O)cc1S(=O)(=O)Nc1ccc(C(C)C)cc1; target or system = Replication protein A 70 kDa DNA-binding subunit, N-terminal domain (RPA1, Homo sapiens, UniProt P27694); test = binding, fluorescence polarisation competition; conditions = with: FITC-ATRIP probe; endpoint = Kd; result = 76 ± 5.5 µM
SMILES = CCOC(=O)C1=C(C)NC2=C(C(=O)CC(C)(C)C2)C1c1ccc(OCC(=O)NN=Cc2cccc(C=O)c2)cc1OCC(=O)NN=Cc1cccc(C=O)c1 (stereo not shown); target or system = Bacillus subtilis; system = IM 622; conditions = concentration not given, 24 h; endpoint = inhibition zone diameter; result = 6.6 ± 0.3 mm
SMILES = COc1cc([C@@H]2c3cc4c(cc3[C@@H](OC3CCCCC3)[C@H]3COC(=O)[C@H]23)OCO4)cc(OC)c1OC; target or system = HepG2; test = Alamar Blue; conditions = 48 h; endpoint = CC50; result = > 100 µM
SMILES = Nc1ncc(-c2ccc3ncnc(N4CCc5cc(F)c(Cl)cc54)c3c2)cn1; system = CD1 mouse, plasma; conditions = intraperitoneal, 50 mg/kg; endpoint = Cmax; result = 4290 ng/mL
SMILES = COc1ccc(CC(=O)OCc2ccc(-n3cccn3)cc2)cc1F; target or system = Cytochrome P450 2C9 (CYP2C9, Homo sapiens, UniProt P11712); test = inhibitor; conditions = 10 µM; endpoint = inhibition; result = 11.2%
SMILES = Cc1ncsc1-c1ccc([C@H](C)NC(=O)[C@@H]2C[C@@H](O)CN2C(=O)[C@@H](NC(=O)CCCCCCC(=O)N2CCN(C[C@]3(C)CCC(c4ccc(Cl)cc4)=C(CN4CCN(c5ccc(C(=O)NS(=O)(=O)c6ccc(N[C@H](CCN7CCOCC7)CSc7ccccc7)c(S(=O)(=O)C(F)(F)F)c6)cc5)CC4)C3)CC2)C(C)(C)C)cc1; system = STAM mice NASH-HCC model, liver; conditions = day 150, treated days 90-150; endpoint = liver steatosis; result = decreased
SMILES = CC(C)n1nnc(-c2cc(O)cc(Nc3ncnn4ccc(CN5CCC(N)CC5)c34)c2)n1; system = mouse, formalin model; endpoint = brain to plasma ratio; result = ~0.02
SMILES = COC(=O)[C@@H]1C(C=Nc2cncnc2N)=Cc2cc3c(cc2[C@H]1c1cc(OC)c(OC)c(OC)c1)OCO3; target or system = HepG2; test = Alamar Blue; conditions = 48 h; endpoint = CC50; result = 32.4 ± 0.6 µM
SMILES = Cc1cc(SCc2sc(-c3ccc(F)nc3)nc2C)ccc1OCC(=O)O; target or system = HEK293T; conditions = 18 h; endpoint = CC50; result = not toxic
SMILES = COC(=O)[C@@H]1C(c2nc3cncnc3[nH]2)=Cc2cc3c(cc2[C@H]1c1cc(OC)c(OC)c(OC)c1)OCO3; target or system = mouse splenocytes uninfected; test = Alamar Blue; conditions = 48 h; endpoint = CC50; result = 53.3 ± 3.5 µM
SMILES = C=CC(=O)N1CCC(c2cc(Nc3cc4n(n3)CCOC4)c3ncnn3c2)C1 (single isomer, unassigned); target or system = TMD8; test = calcium flux, FLIPR; conditions = 4 h preincubation, with: anti-IgM; endpoint = maximum inhibition; result = 14.4%
SMILES = COc1cc([C@@H]2c3cc4c(cc3C=C(C=O)[C@H]2C(=O)OCCCCCCBr)OCO4)cc(OC)c1OC; target or system = mouse splenocytes uninfected; test = Alamar Blue; conditions = 48 h; endpoint = CC50; result = 46.8 ± 7 µM
SMILES = COC(=O)[C@@]1(C)C=C(C(=O)Nc2cccc(C(=O)NC34CC(Nc5nccc(-c6cccnc6)n5)(C3)C4)c2)C(=O)CC1; target or system = MAPK9 (Homo sapiens, UniProt P45984); test = enzyme activity, inhibitor; conditions = 0.02032 µM; endpoint = remaining activity; result = 0.654 fraction of control
SMILES = Cc1cc(SCc2sc(-c3ccc4cnn(C)c4c3)nc2C)ccc1OCC(=O)O; target or system = HEK293T; conditions = 18 h; endpoint = CC50; result = > 100 µM
SMILES = COC(=O)[C@@H]1C(c2nc3cc(C(F)(F)F)ccc3s2)=Cc2cc3c(cc2[C@H]1c1cc(OC)c(OC)c(OC)c1)OCO3; target or system = mouse splenocytes uninfected; test = Alamar Blue; conditions = 48 h; endpoint = CC50; result = > 100 µM

Some of these lines once more:
SMILES = COc1cc([C@@H]2c3cc4c(cc3[C@@H](OC3CCCCC3)[C@H]3COC(=O)[C@H]23)OCO4)cc(OC)c1OC; target or system = HepG2; test = Alamar Blue; conditions = 48 h; endpoint = CC50; result = > 100 µM
SMILES = Nc1ncc(-c2ccc3ncnc(N4CCc5cc(F)c(Cl)cc54)c3c2)cn1; system = CD1 mouse, plasma; conditions = intraperitoneal, 50 mg/kg; endpoint = Cmax; result = 4290 ng/mL
